Results from different studies.
A part holds a random share of what one study measured. “And” joins repeats or separate records; there may be more than shown.
Chain of UniProt Q13464 (whole entry, looked up): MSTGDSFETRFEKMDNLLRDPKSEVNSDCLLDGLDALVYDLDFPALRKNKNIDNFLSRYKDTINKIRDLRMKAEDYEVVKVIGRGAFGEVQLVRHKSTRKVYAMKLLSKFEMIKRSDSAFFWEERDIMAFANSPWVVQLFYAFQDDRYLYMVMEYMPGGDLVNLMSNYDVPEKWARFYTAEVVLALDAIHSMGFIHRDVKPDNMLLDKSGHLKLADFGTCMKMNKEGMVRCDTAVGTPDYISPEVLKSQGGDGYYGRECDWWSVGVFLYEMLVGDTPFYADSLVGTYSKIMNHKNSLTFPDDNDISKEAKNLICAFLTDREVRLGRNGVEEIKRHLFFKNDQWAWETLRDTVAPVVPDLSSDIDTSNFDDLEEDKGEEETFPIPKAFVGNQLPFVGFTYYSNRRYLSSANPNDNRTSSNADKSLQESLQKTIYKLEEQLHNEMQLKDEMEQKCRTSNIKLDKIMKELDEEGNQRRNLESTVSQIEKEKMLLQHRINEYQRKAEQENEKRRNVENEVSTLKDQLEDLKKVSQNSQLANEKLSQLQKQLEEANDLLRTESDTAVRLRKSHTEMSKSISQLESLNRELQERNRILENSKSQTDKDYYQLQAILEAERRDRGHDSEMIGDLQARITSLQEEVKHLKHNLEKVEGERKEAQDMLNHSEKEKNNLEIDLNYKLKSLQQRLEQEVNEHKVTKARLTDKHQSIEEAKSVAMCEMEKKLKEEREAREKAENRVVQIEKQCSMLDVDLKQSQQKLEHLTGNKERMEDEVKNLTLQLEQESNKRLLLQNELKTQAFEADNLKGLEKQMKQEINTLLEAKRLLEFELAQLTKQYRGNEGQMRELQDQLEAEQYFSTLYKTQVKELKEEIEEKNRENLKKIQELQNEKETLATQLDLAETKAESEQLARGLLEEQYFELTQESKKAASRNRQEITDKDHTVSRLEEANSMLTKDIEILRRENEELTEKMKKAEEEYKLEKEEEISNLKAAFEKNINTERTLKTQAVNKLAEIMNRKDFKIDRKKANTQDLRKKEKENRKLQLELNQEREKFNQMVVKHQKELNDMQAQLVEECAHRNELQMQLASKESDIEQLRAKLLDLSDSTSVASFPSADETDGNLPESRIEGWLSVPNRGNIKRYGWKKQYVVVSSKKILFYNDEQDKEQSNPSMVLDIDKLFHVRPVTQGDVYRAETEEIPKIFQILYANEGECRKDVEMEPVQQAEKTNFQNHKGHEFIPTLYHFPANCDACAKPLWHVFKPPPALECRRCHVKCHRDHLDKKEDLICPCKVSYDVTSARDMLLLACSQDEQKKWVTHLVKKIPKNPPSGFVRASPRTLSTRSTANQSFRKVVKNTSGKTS
Chain of UniProt Q9HAZ1 (whole entry, looked up): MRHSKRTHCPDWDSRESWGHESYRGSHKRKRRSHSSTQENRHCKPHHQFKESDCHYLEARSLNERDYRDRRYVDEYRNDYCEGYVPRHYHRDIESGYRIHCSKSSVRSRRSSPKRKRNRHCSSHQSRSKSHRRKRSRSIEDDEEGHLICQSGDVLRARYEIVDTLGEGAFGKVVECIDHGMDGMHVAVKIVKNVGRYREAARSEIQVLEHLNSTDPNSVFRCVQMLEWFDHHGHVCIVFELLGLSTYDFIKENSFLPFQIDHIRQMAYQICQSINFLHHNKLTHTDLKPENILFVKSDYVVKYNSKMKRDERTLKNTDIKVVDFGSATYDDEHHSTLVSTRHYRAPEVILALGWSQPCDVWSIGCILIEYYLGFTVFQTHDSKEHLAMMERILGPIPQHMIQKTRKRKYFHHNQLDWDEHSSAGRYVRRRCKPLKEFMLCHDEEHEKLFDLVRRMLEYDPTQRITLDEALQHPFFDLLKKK
Chain of UniProt Q9H4B4 (whole entry, looked up): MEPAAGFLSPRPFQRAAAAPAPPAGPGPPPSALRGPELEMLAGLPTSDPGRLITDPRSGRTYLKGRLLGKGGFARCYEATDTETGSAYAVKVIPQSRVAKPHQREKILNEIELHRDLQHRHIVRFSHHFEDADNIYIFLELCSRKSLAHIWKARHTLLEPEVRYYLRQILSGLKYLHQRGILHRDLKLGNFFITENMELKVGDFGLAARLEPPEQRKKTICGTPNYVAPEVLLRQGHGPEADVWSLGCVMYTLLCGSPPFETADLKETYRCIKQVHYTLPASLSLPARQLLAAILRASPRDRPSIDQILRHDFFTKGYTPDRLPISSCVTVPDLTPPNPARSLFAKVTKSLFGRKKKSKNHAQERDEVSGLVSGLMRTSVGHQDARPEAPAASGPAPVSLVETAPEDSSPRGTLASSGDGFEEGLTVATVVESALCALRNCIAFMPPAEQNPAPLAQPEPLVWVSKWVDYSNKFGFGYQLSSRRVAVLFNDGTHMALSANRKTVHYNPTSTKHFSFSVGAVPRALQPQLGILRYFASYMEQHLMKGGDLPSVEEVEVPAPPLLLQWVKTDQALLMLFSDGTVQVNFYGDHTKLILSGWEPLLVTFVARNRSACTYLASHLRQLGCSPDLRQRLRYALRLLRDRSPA

Set 1
Target: DNA polymerase theta, ATPase domain (POLQ, Homo sapiens, UniProt O75417)
Chain of UniProt O75417 (whole entry, unmodified, looked up): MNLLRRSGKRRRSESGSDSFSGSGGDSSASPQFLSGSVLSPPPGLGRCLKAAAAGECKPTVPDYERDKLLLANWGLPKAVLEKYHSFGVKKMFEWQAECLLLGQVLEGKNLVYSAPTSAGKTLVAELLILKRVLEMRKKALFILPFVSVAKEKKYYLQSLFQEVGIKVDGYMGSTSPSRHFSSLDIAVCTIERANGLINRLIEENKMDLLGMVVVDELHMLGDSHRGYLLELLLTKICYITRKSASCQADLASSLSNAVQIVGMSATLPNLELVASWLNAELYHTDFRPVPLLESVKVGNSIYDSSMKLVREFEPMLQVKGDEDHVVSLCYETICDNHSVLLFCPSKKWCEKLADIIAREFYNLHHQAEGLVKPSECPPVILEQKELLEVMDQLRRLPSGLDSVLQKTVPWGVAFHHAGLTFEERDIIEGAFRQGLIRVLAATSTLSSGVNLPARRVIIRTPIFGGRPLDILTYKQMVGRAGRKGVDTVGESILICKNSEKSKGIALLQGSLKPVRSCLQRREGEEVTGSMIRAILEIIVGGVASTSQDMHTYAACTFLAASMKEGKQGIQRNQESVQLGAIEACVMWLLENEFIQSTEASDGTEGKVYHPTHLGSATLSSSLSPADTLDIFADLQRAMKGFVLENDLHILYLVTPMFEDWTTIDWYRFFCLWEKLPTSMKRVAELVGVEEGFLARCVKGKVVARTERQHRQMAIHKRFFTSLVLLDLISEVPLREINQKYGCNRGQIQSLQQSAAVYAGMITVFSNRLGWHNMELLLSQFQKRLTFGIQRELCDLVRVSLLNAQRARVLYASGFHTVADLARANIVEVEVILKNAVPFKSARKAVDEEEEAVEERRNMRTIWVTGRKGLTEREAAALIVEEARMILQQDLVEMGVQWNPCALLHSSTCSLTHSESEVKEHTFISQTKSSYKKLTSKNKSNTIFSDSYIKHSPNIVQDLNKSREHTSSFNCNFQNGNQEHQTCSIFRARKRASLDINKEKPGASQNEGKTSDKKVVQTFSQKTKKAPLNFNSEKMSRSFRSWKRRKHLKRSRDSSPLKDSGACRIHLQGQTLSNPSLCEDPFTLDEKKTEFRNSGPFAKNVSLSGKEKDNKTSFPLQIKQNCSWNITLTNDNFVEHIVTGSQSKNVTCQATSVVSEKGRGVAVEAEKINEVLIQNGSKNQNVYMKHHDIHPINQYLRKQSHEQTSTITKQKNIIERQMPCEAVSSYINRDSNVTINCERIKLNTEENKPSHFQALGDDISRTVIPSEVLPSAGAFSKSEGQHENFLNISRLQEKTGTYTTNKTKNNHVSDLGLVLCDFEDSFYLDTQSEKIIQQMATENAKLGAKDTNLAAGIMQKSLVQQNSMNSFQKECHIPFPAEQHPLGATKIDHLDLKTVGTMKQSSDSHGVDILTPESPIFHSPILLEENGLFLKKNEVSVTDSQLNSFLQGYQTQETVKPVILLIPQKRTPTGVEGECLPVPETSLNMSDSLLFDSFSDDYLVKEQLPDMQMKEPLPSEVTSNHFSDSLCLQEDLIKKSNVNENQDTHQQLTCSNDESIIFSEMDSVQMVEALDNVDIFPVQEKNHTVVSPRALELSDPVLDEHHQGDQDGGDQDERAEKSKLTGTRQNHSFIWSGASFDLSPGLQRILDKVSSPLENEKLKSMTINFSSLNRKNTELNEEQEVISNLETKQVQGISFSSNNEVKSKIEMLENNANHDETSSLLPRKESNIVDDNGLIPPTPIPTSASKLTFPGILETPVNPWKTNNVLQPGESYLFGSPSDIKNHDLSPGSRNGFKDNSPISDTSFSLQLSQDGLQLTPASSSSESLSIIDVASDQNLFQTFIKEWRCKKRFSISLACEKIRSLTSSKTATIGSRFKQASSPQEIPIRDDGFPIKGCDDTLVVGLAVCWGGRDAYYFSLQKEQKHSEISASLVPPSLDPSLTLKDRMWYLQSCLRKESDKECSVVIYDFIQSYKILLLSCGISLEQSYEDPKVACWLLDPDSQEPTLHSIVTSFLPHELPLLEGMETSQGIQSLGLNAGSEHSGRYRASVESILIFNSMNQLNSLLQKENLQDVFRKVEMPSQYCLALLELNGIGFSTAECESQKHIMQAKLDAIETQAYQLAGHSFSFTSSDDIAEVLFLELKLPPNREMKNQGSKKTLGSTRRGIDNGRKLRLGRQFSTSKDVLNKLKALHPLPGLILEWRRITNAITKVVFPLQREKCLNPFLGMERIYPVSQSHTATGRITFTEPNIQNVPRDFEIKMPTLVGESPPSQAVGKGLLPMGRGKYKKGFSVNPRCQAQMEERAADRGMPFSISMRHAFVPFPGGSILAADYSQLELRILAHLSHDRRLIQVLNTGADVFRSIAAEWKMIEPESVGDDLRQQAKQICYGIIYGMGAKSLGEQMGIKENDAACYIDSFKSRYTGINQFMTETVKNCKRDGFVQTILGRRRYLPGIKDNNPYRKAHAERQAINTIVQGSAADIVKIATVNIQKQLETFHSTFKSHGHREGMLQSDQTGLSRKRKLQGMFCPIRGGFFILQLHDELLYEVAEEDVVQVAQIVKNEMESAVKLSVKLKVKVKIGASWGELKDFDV
Read-out: enzyme activity
Mode: inhibitor
Concentration: 77 µM
Relative to: untreated
The remaining activity of `CC(C)[C@H](N)C(=O)OCC(CO)OCn1cnc2c(=O)nc(N)[nH]c21` (stereo partly shown) is reported as 98%.
For `O=c1c(O)c(-c2ccc(O)cc2)oc2cc(O)cc(O)c12`, the remaining activity was 89.6% and 102%.
`CCN(CC)CCOC(=O)c1cc(Cl)c(N)cc1OC` gave a remaining activity of 97.5%.
With `COc1cc(NC(=O)c2ccccn2)ccc1Cl` the remaining activity was 101%.
`C[C@@H]1NC(=O)NC1=O` has a remaining activity of 102%.

Set 2
SMILES: Cc1nc(-c2ccccc2)c(-c2ccncc2)o1
Read-out: enzyme activity
Mode: inhibitor
Concentration: 0.5 µM
Relative to: control
It gave 76.3% for remaining activity (MAPK14 (Homo sapiens, UniProt Q16539)).
For MAPK11 (Homo sapiens, UniProt Q15759): remaining activity read 101%.
For ROCK1 (Homo sapiens, UniProt Q13464): remaining activity read 99.8%.
It gave 97.9% for remaining activity (MINK1 (Homo sapiens, UniProt Q8N4C8)).
For CDC42BPB (Homo sapiens, UniProt Q9Y5S2): remaining activity read 101%.
It gave 90.3% for remaining activity (MAPK1 (Homo sapiens, UniProt P28482)).
AKT2 (Homo sapiens, UniProt P31751) — remaining activity: 96.7%.
The remaining activity was 101% (Cyclin-dependent kinase 9, with cyclin K (CDK9, Homo sapiens, UniProt P50750)).
It gave 95.4% for remaining activity (PLK3 (Homo sapiens, UniProt Q9H4B4)).
CAMK4 (Homo sapiens, UniProt Q16566) — remaining activity: 97.2%.
For Cyclin-dependent kinase 1, with cyclin A (CDK1, Homo sapiens, UniProt P06493): remaining activity read 94.7%.
The remaining activity was 108% (Myosin-IIIb (MYO3B, Homo sapiens, UniProt Q8WXR4)).
The remaining activity was 85.2% (KDR (Homo sapiens, UniProt P35968)).
CLK4 (Homo sapiens, UniProt Q9HAZ1) — remaining activity: 121%.

Set 3
SMILES: CC(=O)N1CCN(c2nc(OC[C@@H]3CCCN3C)nc3c2CCN(c2cccc4cccc(Cl)c24)C3)C[C@@H]1CC#N
Read-out: binding
Mode: competitor
Method: NanoBRET
Cell line: HEK293
KRAS Q61H: GTPase KRas (KRAS, Homo sapiens, UniProt P01116, Q61H)
For KRAS Q61H; 15.2 nM: normalized BRET read 89.8% and 94.3% and 101%.
It gave 93.6% and 98.1% and 101% for normalized BRET (KRAS Q61H; 5.08 nM).
For GTPase KRas (KRAS, Homo sapiens, UniProt P01116, G12D); 5.08 nM: normalized BRET read 97% and 92.2% and 102%.
For KRAS Q61H; 137 nM: normalized BRET read 86.1% and 96.8% and 85.2%.

Set 4
Compound: Cn1nc(C(=O)NCc2ccc(C(=O)O)cc2)cc1-c1ccc2[nH]ccc2c1
Read-out: cell-free assay
Method: competition with immobilised ligand
Concentration: 0.1 µM
It gave 91% for remaining binding (MET (Homo sapiens, UniProt P08581, M1250T)).
The remaining binding was 93% (FGFR3 (Homo sapiens, UniProt P22607)).
The remaining binding was 61% (PLK4 (Homo sapiens, UniProt O00444)).
It gave 92% for remaining binding (TESK1 (Homo sapiens, UniProt Q15569)).
The remaining binding was 83% (MYLK2 (Homo sapiens, UniProt Q9H1R3)).

Repeated from above (set 4):
The remaining binding was 61% (PLK4 (Homo sapiens, UniProt O00444)).
It gave 92% for remaining binding (TESK1 (Homo sapiens, UniProt Q15569)).
